Literature values as cited in several papers.
Each line is one published result; not all experiments were run side by side. ± gives the spread as reported.

CSCC[C@@H]1NC(=O)CNC(=O)[C@H](CCC(=O)O)NC(=O)[C@@H]2CSSC[C@H](NC(=O)[C@@H](N)Cc3ccc(O)cc3)C(=O)N[C@@H](CCC(N)=O)C(=O)N[C@@H](CCCCN)C(=O)N[C@@H](Cc3c[nH]c4ccccc34)C(=O)N[C@@H](CCSC)C(=O)N[C@@H](Cc3c[nH]c4ccccc34)C(=O)N[C@@H]([C@@H](C)O)C(=O)N[C@H]3CSSC[C@H](NC(=O)[C@H](C(C)C)NC1=O)C(=O)N[C@@H](CCCNC(=N)N)C(=O)N[C@@H](CC(C)C)C(=O)N[C@@H](Cc1c[nH]c4ccccc14)C(=O)N[C@H](C(=O)N[C@@H](CCCCN)C(=O)N[C@@H](CCCCN)C(=O)N[C@@H](CCCCN)C(=O)N[C@@H](CC(C)C)C(=O)N[C@@H](Cc1c[nH]c4ccccc14)C(=O)O)CSSC[C@H](NC(=O)[C@H](CCCCN)NC(=O)[C@H](CCCNC(=N)N)NC(=O)[C@H](CCC(=O)O)NC(=O)[C@H](CO)NC(=O)[C@H](CC(=O)O)NC3=O)C(=O)N2 has an IC50 of 0.026 µM (Nav1.6; sodium current, inhibitor).
O=C1c2ccccc2C(=O)c2oc(-c3ccccc3)nc21 has an IC50 of 0.091 µM (SARS-CoV-2 papain-like protease; enzyme activity, inhibitor; together with: Ub-AMC substrate).
CC1OC(OC2C(CO)OC(OC3CCC4(C)C(CCC5(C)C4CC=C4C6CC(C)(C)CCC6(C(=O)Nc6ccccc6)CCC45C)C3(C)C)C(OC3OC(C)C(O)C(O)C3O)C2O)C(O)C(O)C1O (stereo not shown) gave an IC50 of 18.1 µM (SARS-CoV-2 spike protein).
With Cc1cc(C#N)cc(C)c1Oc1nc(NC2CCN(Cc3ccc(S(N)(=O)=O)cc3)CC2)nc2ccsc12 the EC50 was 0.0034 ± 0.0006 µM (HIV-1; viral cytopathic effect, MTT; MT-4, L100I mutant).
The IC50 of O=C(Oc1cncc(Cl)c1)c1cccc2[nH]ccc12 is reported as 0.03 µM (SARS-CoV 3C-like protease; enzyme activity).
For Nc1nc2c(ncn2C2OC(COP(=O)(O)OP(=O)(O)OP(=O)(O)O)C(O)C2O)c(=O)[nH]1 (stereo not shown), enzyme activity read “no inhibition” (vaccinia virus D10 MBP fusion; inhibitor; concentration not given, single turnover).
For N#Cc1ccccc1C[C@@H](N)C(=O)N[C@H](Cc1ccc(Cl)cc1Cl)C(=O)N[C@H](CC(=O)O)Cc1ccc(F)cc1, the IC50 was 5.7 µM (SARS-CoV-2 3CL protease; enzyme activity, inhibitor).
The IC50 of O=C(/C=C/c1ccc(O)c2oc(-c3ccc(O)c(O)c3)cc12)O[C@H](Cc1ccc(O)c(O)c1)C(=O)O is reported as 3.85 µM (SARS-CoV-2 spike protein; ACE2-expressing HEK293T).
With CC1=NOC(=O)/C1=C\c1ccc(-c2ccccc2)o1 the IC50 was 6 µM (IspE (Yersinia pestis); enzyme activity, inhibitor).
For C=CCn1c(CSc2ccccc2[N+](=O)[O-])n[nH]c1=S, the IC50 was 5.3 µM (SARS-CoV nsp13 helicase).
With O=C(Oc1cccnc1)c1ccco1 the inhibition was 91% (Replicase polyprotein 1ab, main protease (rep, Severe acute respiratory syndrome-related coronavirus, UniProt P0C6X7); 100 µM).
CC(C)C[C@H](NC(=O)CN)C(=O)N[C@@H](Cc1ccccc1)C(=O)N[C@@H](CC(=O)O)C(=O)O gave an IC50 of 102 µM (ricin A chain; yeast).
The IC50 of Nc1ncnc2c1ncn2C1OC(CSCCC(N)C(=O)O)C(O)C1O (stereo not shown) is reported as 2.2 µM (SARS-CoV-2 nsp16; enzyme activity, inhibitor; other laboratory data).
For C=C1CC[C@@H]2[C@](C)(COC(C)=O)[C@H](OC(C)=O)CC[C@@]2(C)[C@@H]1C[C@H](SC(=S)N1CCN([C@@H](c2ccccc2)c2ccc(Cl)cc2)CC1)C1=CCOC1=O, the inhibition was over 50% (Replicase polyprotein 1ab, main protease (rep, Severe acute respiratory syndrome coronavirus 2, UniProt P0DTD1); 10 µM).
The EC50 of O=C(NCc1ccc(F)cc1F)c1cn2ccn(CCCCCO)c(=O)c2c(O)c1=O is reported as 0.0154 ± 0.0003 µM (HIV-1 integrase S230N; viral replication; HIV-1; single-round vector).
For O=C(CNc1nc(N2CCc3ccccc3C2)nc2ccccc12)Nc1ccccc1, the inhibition was 58.8% (SARS-CoV-2 RdRp; 10 µM).
With O=C1C(=O)N(Cc2cc3ccccc3s2)c2ccc(I)cc21 the IC50 was 0.95 µM (SARS-CoV main protease).
With Oc1nc(/C=C/c2ccc(Cl)c(Cl)c2)cc(C(F)(F)F)n1 the IC50 was 4 µM (SARS-CoV-2 nsp16; enzyme activity, inhibitor; 2 h).
Under enzyme activity, Nc1nc2c(ncn2C2OC(COP(=O)(O)OP(=O)(O)O)C(O)C2O)c(=O)[nH]1 (stereo not shown) is recorded as “no inhibition” (vaccinia virus D10 MBP fusion; inhibitor; concentration not given, single turnover).

Some of these lines once more:
The EC50 of O=C(NCc1ccc(F)cc1F)c1cn2ccn(CCCCCO)c(=O)c2c(O)c1=O is reported as 0.0154 ± 0.0003 µM (HIV-1 integrase S230N; viral replication; HIV-1; single-round vector).
For O=C(CNc1nc(N2CCc3ccccc3C2)nc2ccccc12)Nc1ccccc1, the inhibition was 58.8% (SARS-CoV-2 RdRp; 10 µM).
With O=C1C(=O)N(Cc2cc3ccccc3s2)c2ccc(I)cc21 the IC50 was 0.95 µM (SARS-CoV main protease).
